Assay results of several laboratories.
Protocols differ between the studies behind these lines.
Organism: Escherichia coli

SMILES	test	test system	conditions	MIC
CC[C@H](C)[C@H](NC(=O)[C@@H](CCCNC(=N)N)NC(=O)[C@H](CCCNC(=N)N)NC(=O)[C@@H]1CCCN1C(=O)[C@@H]1CCCN1C(=O)[C@H](CCCNC(=N)N)NC(=O)[C@@H]1CCCN1C(=O)[C@H](CCCNC(=N)N)NC(=O)[C@@H]1CCCN1C(=O)[C@H](CC(C)C)NC(=O)[C@H](Cc1ccc(O)cc1)NC(=O)[C@@H]1CCCN1C(=O)[C@@H]1CCCN1C(=O)[C@H](CCCCN)NC(=O)[C@H](CC(=O)O)NC(=O)[C@@H](N)C(C)C)C(=O)N[C@@H](Cc1cc(I)c(O)c(I)c1)C(=O)N[C@@H](CC(N)=O)C(=O)N[C@H](CCCNC(=N)N)C(N)=O	broth microdilution	BW25113	18 h, 37 °C, 25% MHB2	16 µg/mL
CC[C@H](C)[C@H](NC(=O)[C@H](CCCCN)NC(=O)[C@H](CCCNC(=N)N)NC(=O)[C@H](Cc1c[nH]c2ccccc12)NC(=O)[C@@H](NC(=O)[C@H](CCCCN)NC(=O)[C@H](CCCNC(=N)N)NC(=O)[C@@H](NC(=O)[C@H](CCCNC(=N)N)NC(=O)[C@H](CCCCN)NC(=O)[C@H](CCCNC(=N)N)NC(=O)[C@H](CC(C)C)NC(=O)[C@H](CCCNC(=N)N)NC(=O)[C@H](CO)NC(=O)[C@H](Cc1ccccc1)NC(=O)[C@H](CCCNC(=N)N)NC(=O)CN)[C@@H](C)CC)C(C)C)C(=O)NCC(=O)N1CCC[C@H]1C(=O)N[C@H](C(=O)N[C@@H](C)C(=O)NCC(=O)N1CCC[C@H]1C(=O)N[C@H](C(=O)N[C@H](C(=O)NCC(=O)N[C@@H](Cc1c[nH]cn1)C(=O)N[C@@H](Cc1ccccc1)C(=O)NCC(=O)O)[C@@H](C)CC)[C@@H](C)CC)[C@@H](C)CC	CLSI agar dilution	ATCC 25922	20 h, 37 °C	16 µg/mL
CC[C@H](C)[C@H](NC(=O)[C@@H](CCCNC(=N)N)NC(=O)[C@H](CCCNC(=N)N)NC(=O)[C@H](CCCCN)NC(=O)[C@H](Cc1c[nH]c2ccccc12)NC(=O)[C@H](CCCNC(=N)N)NC(=O)[C@@H]1CCCN1C(=O)[C@H](CCCNC(=N)N)NC(=O)[C@@H]1CCCN1C(=O)[C@H](CC(C)C)NC(=O)[C@H](Cc1ccc(O)cc1)NC(=O)[C@@H]1CCCN1C(=O)[C@@H]1CCCN1C(=O)[C@H](CCCCN)NC(=O)[C@H](CC(=O)O)NC(=O)[C@@H](N)C(C)C)C(=O)N[C@@H](Cc1ccc(O)cc1)C(=O)N[C@@H](CC(N)=O)C(=O)N[C@H](CCCNC(=N)N)C(N)=O	broth microdilution	MC4100	18 h, 37 °C, 25% MHB2	8 µg/mL
CC(C)Oc1ccc(B(O)O)c(F)n1	bacterial growth	AmpC-overproducing clinical isolate	without cefotaxime	1020 µg/mL
CC[C@H](C)[C@H](NC(=O)[C@@H](CCCNC(=N)N)NC(=O)[C@H](CCCNC(=N)N)NC(=O)[C@@H]1CCCN1C(=O)[C@@H]1CCCN1C(=O)[C@H](CCCNC(=N)N)NC(=O)[C@H](Cc1c[nH]c2ccccc12)NC(=O)[C@H](CCCNC(=N)N)NC(=O)[C@@H]1CCCN1C(=O)[C@H](CC(C)C)NC(=O)[C@H](Cc1ccc(O)cc1)NC(=O)[C@@H]1CCCN1C(=O)[C@@H]1CCCN1C(=O)[C@H](CCCCN)NC(=O)[C@H](CC(=O)O)NC(=O)[C@@H](N)C(C)C)C(=O)N[C@@H](Cc1ccc(O)cc1)C(=O)N[C@@H](CC(N)=O)C(=O)N[C@H](CCCNC(=N)N)C(N)=O	broth microdilution	MC4100	18 h, 37 °C, 25% MHB2	8 µg/mL
CCn1c(-c2ccc(F)cc2)c(-c2ccc(F)cc2)n(CC)c1=[Se]	broth microdilution	carbapenem-resistant BAA-2140	24 h	> 40 µM
CCCCCCCC(=O)N[C@@H](CCN)C(=O)N[C@H](C(=O)N[C@@H](CCN)C(=O)N[C@H]1CCNC(=O)[C@H]([C@@H](C)O)NC(=O)[C@H](CCN)NC(=O)[C@H](CCN)NC(=O)[C@H](CCC(C)C)NC(=O)[C@@H](Cc2ccccc2)NC(=O)[C@H](CCN)NC1=O)[C@@H](C)O	broth microdilution	ATCC 25922		0.125 to 0.25 µg/mL
CC(C)C[C@@H]1NC(=O)[C@H](CCCCN)NC(=O)C(N)CCC=CCCC(C(N)=O)NC(=O)[C@H](CCCCN)NC(=O)[C@H](CC(C)C)NC(=O)[C@H](CCCCN)NC(=O)C2CCC=CCCC(NC(=O)[C@H](CCCCN)NC1=O)C(=O)N[C@@H](CCCCN)C(=O)N1CCC[C@@H]1C(=O)NCC(=O)N[C@@H](CCCCN)C(=O)N2 (stereo partly shown)	broth microdilution	ATCC 25922, Mueller-Hinton broth	18 h, 37 °C	32 µM
CC[C@H](C)[C@H](NC(=O)[C@@H](NC(=O)[C@H](CCCCN)NC(=O)[C@H](CCCCN)NC(=O)[C@@H](NC(=O)[C@H](Cc1c[nH]c2ccccc12)NC(=O)[C@H](CCCCN)NC(=O)[C@@H](NC(=O)[C@H](CC(C)C)NC(=O)[C@H](CCCCN)NC(=O)[C@H](CCCCN)NC(=O)[C@@H](N)C(C)C)[C@@H](C)CC)[C@@H](C)CC)C(C)C)C(N)=O			24 h, 37 °C, Mueller-Hinton broth, KCl 4.5 mM	64 µM
CC[C@H](C)[C@H](NC(=O)[C@@H](CCCNC(=N)N)NC(=O)[C@H](CCCNC(=N)N)NC(=O)[C@@H]1CCCN1C(=O)[C@@H]1CCCN1C(=O)[C@H](CCCNC(=N)N)NC(=O)[C@@H]1CCCN1C(=O)[C@H](CCCNC(=N)N)NC(=O)[C@@H]1CCCN1C(=O)[C@@H](NC(=O)[C@H](Cc1ccc(O)cc1)NC(=O)[C@@H]1CCCN1C(=O)[C@@H]1CCCN1C(=O)[C@H](CCCCN)NC(=O)[C@H](CC(=O)O)NC(=O)[C@@H](N)C(C)C)C(C)(C)C)C(=O)N[C@@H](Cc1ccc(O)cc1)C(=O)N[C@@H](CC(N)=O)C(=O)N[C@H](CCCNC(=N)N)C(N)=O	broth microdilution	MC4100	18 h, 37 °C, 25% MHB2	16 µg/mL
CC(C)C[C@@H](NC(=O)[C@H](NC(=O)[C@@H](CCCCN)NC(=O)[C@@H](CCCCN)NC(=O)[C@@H](CC(C)C)NC(=O)[C@@H](Cc1c[nH]c2ccccc12)NC(=O)[C@@H](CCCCN)NC(=O)[C@@H](CC(C)C)NC(=O)[C@@H](CC(C)C)NC(=O)[C@@H](CCCCN)NC(=O)[C@@H](CCCCN)NC(=O)[C@H](N)C(C)C)C(C)C)C(N)=O			24 h, 37 °C, Mueller-Hinton broth, MgCl2 1 mM	8 µM
CC(C)C[C@@H](NC(=O)[C@@H](CCCNC(=N)N)NC(=O)[C@H](N)CCCNC(=N)N)C(=O)N[C@H](CC(C)C)C(=O)N[C@H](CCCNC(=N)N)C(=O)N[C@H](CCCCN)C(=O)N[C@H](CC(C)C)C(=O)N[C@H](CCCCN)C(=O)NCC(=O)N[C@H](CCCCN)C(=O)N[C@H](CCCCN)C(=O)N[C@H](CC(C)C)C(=O)N[C@H](Cc1ccc(O)cc1)C(=O)N[C@H](CC(C)C)C(=O)N[C@H](Cc1ccc(O)cc1)C(=O)N[C@H](Cc1ccccc1)C(=O)N[C@H](CCCCN)C(=O)N[C@H](CC(C)C)C(=O)N[C@H](CCC(N)=O)C(=O)N[C@H](CC(C)C)C(=O)N[C@H](CC(C)C)C(=O)N[C@H](CCCCN)C(=O)N[C@H](CCCCN)C(N)=O		KCTC 1682, Mueller-Hinton broth	added: 4.5 mM KCl	16 µM
CC1(C)[C@H](NC(=O)/C(=N\OC2(C(=O)O)CCCCC2)c2csc(N)n2)C(=O)N1OS(=O)(=O)O	agar dilution	CDC 1001728, NDM-1		2 µg/mL
CO[C@@H](C(N)=O)[C@H](NC(=O)c1ccc(NC(=O)[C@@H](N)Cc2ccc(O)cc2)cc1)C(=O)Nc1ccc(C(=O)Nc2ccc(C(=O)Nc3ccc(C(=O)O)cc3)c(O)c2OC(C)C)cc1		monooxygenase clone	16 h, 37 °C	1 µg/mL
CC(C)[C@H](NC(=O)[C@H](Cc1ccc(O)cc1)NC(=O)[C@H](CS)NC(=O)[C@@H](NC(=O)[C@H](CCCNC(=N)N)NC(=O)[C@H](Cc1ccccc1)NC(=O)[C@H](CS)NC(=O)[C@H](Cc1c[nH]c2ccccc12)NC(=O)[C@@H](N)CCCNC(=N)N)C(C)C)C(=O)NCC(=O)N[C@@H](Cc1ccccc1)C(=O)N[C@@H](CS)C(=O)N[C@@H](Cc1ccc(O)cc1)C(=O)N[C@@H](Cc1c[nH]c2ccccc12)C(=O)N[C@@H](CCCCN)C(=O)N[C@@H](CS)C(=O)N[C@@H](CCCNC(=N)N)C(=O)O	broth microdilution	K88		0.64 log10 µg/mL
CC[C@H](C)[C@H](NC(=O)[C@H](CCCNC(=N)N)NC(=O)[C@H]1CCCN1C(=O)[C@H](Cc1ccc(O)cc1)NC(=O)[C@@H](NC(=O)[C@@H](NC(=O)[C@H](CCCNC(=N)N)NC(=O)[C@H](Cc1ccccc1)NC(=O)[C@@H](NC(=O)[C@H](Cc1c[nH]c2ccccc12)NC(=O)[C@H](Cc1c[nH]c2ccccc12)NC(=O)c1ccccc1)C(C)C)C(C)C)C(C)C)C(=O)N[C@H](C(=O)N[C@@H](Cc1ccc(O)cc1)C(=O)N[C@@H](CCCNC(=N)N)C(=O)N[C@@H](CCCNC(=N)N)C(=O)N[C@H](C(=O)N[C@@H](CCCNC(=N)N)C(=O)N[C@@H](Cc1c[nH]c2ccccc12)C(=O)N[C@H](C(=O)NCC(=O)N1CCC[C@H]1C(=O)N[C@@H](CCCCN)C(=O)N[C@@H](CCCCN)C(N)=O)[C@@H](C)O)C(C)C)C(C)C	bacterial growth, broth dilution, OD600	DH5α, LB medium	16 h, 37 °C	25 µM
CC[C@H](C)[C@H](NC(=O)[C@@H](CCCNC(=N)N)NC(=O)[C@H](CCCNC(=N)N)NC(=O)[C@@H]1CCCN1C(=O)[C@@H]1CCCN1C(=O)[C@H](CCCNC(=N)N)NC(=O)[C@@H]1CCCN1C(=O)[C@H](CCCNC(=N)N)NC(=O)[C@@H]1CCCN1C(=O)[C@H](CC(C)C)NC(=O)[C@H](Cc1c[nH]c2ccccc12)NC(=O)[C@@H]1CCCN1C(=O)[C@@H]1CCCN1C(=O)[C@H](CCCCN)NC(=O)[C@H](CC(=O)O)NC(=O)[C@@H](N)C(C)C)C(=O)N[C@@H](Cc1ccc(O)cc1)C(=O)N[C@@H](CC(N)=O)C(=O)N[C@H](CCCNC(=N)N)C(N)=O	broth microdilution	BW25113	18 h, 37 °C, 25% MHB2	8 µg/mL
C#CCOc1ccc(CN[C@@]2(C)C[C@H](O[C@H]3[C@H](Oc4c5cc6cc4Oc4ccc(cc4Cl)[C@@H](O)[C@@H](NC(=O)[C@@H](CC(C)C)NC)C(=O)N[C@@H](CC(N)=O)C(=O)N[C@H]6C(=O)N[C@H]4C(=O)N[C@H](C(=O)N[C@H](C(=O)O)c6cc(O)cc(O)c6-c6cc4ccc6O)[C@H](O)c4ccc(c(Cl)c4)O5)O[C@H](CO)[C@@H](O)[C@@H]3O)O[C@@H](C)[C@H]2O)cc1OC	broth microdilution	ATCC 25922	18 to 20 h	> 128 µg/mL
O=C(O)C(S)c1ccccc1 (stereo not shown)		NDM-1 producing	compound alone	> 2000 µM

Some of these lines once more:
SMILES	test	test system	conditions	MIC
CC[C@H](C)[C@H](NC(=O)[C@H](CCCCN)NC(=O)[C@H](CCCNC(=N)N)NC(=O)[C@H](Cc1c[nH]c2ccccc12)NC(=O)[C@@H](NC(=O)[C@H](CCCCN)NC(=O)[C@H](CCCNC(=N)N)NC(=O)[C@@H](NC(=O)[C@H](CCCNC(=N)N)NC(=O)[C@H](CCCCN)NC(=O)[C@H](CCCNC(=N)N)NC(=O)[C@H](CC(C)C)NC(=O)[C@H](CCCNC(=N)N)NC(=O)[C@H](CO)NC(=O)[C@H](Cc1ccccc1)NC(=O)[C@H](CCCNC(=N)N)NC(=O)CN)[C@@H](C)CC)C(C)C)C(=O)NCC(=O)N1CCC[C@H]1C(=O)N[C@H](C(=O)N[C@@H](C)C(=O)NCC(=O)N1CCC[C@H]1C(=O)N[C@H](C(=O)N[C@H](C(=O)NCC(=O)N[C@@H](Cc1c[nH]cn1)C(=O)N[C@@H](Cc1ccccc1)C(=O)NCC(=O)O)[C@@H](C)CC)[C@@H](C)CC)[C@@H](C)CC	CLSI agar dilution	ATCC 25922	20 h, 37 °C	16 µg/mL
CC[C@H](C)[C@H](NC(=O)[C@@H](CCCNC(=N)N)NC(=O)[C@H](CCCNC(=N)N)NC(=O)[C@H](CCCCN)NC(=O)[C@H](Cc1c[nH]c2ccccc12)NC(=O)[C@H](CCCNC(=N)N)NC(=O)[C@@H]1CCCN1C(=O)[C@H](CCCNC(=N)N)NC(=O)[C@@H]1CCCN1C(=O)[C@H](CC(C)C)NC(=O)[C@H](Cc1ccc(O)cc1)NC(=O)[C@@H]1CCCN1C(=O)[C@@H]1CCCN1C(=O)[C@H](CCCCN)NC(=O)[C@H](CC(=O)O)NC(=O)[C@@H](N)C(C)C)C(=O)N[C@@H](Cc1ccc(O)cc1)C(=O)N[C@@H](CC(N)=O)C(=O)N[C@H](CCCNC(=N)N)C(N)=O	broth microdilution	MC4100	18 h, 37 °C, 25% MHB2	8 µg/mL
CC(C)Oc1ccc(B(O)O)c(F)n1	bacterial growth	AmpC-overproducing clinical isolate	without cefotaxime	1020 µg/mL
